Published values pooled from the literature.
Parts stem from different laboratories: compare values within a part only.

Block 1
Target: Replicase polyprotein 1ab, nsp13 helicase (rep, Severe acute respiratory syndrome coronavirus 2, UniProt P0DTD1)
Action: inhibitor
Concentration: 20 µM
Compound	inhibition
CC(=O)Nc1ccc(OC(C)=O)cc1	8.9%
CC#C[C@@H](CC(=O)O)c1ccc(OCc2cccc(-c3ccc(C(F)(F)F)cc3)c2)cc1	6.76%
Cc1c(Cl)cccc1Nc1ccccc1C(=O)O	5.37%
O=P1(NCCCl)OCCCN1CCCl (stereo not drawn)	-0.24%
O=[N+]([O-])c1cccc2cn[nH]c12	4.54%
OC[C@H]1O[C@@H](c2ccc(Cl)c(Cc3ccc(O[C@H]4CCOC4)cc3)c2)[C@H](O)[C@@H](O)[C@@H]1O	1.04%
CSc1ccccc1Nc1nc(N2CCNCC2)nc2c(NCC3CC3)ncnc12	15.5%
O=C1c2ccccc2-c2c(NCCc3ccccc3)c(=O)[nH]c3cccc1c23	9.68%
C[C@H](N[C@@H](CCc1ccccc1)C(=O)O)C(=O)N1Cc2ccccc2C[C@H]1C(=O)O	0.3%
N[C@@H](CC(=O)N1CCn2c(nnc2C(F)(F)F)C1)Cc1cc(F)c(F)cc1F	-0.06%
C=CCN(C)CCCCCCOc1ccc(C(=O)c2ccc(Br)cc2)c(F)c1	3.8%
COc1cc2c(cc1OC)CN(C(=O)[C@@H](NCc1ccncc1)C(C)(C)C)CC2	-1.12%
CNC(=O)[C@H](Cc1c[nH]c2ccccc12)NC(=O)[C@@H](CC(=O)NO)CC(C)C	2.13%
Cc1cnc(-c2cnc(NCCNc3ccc(C#N)cn3)nc2-c2ccc(Cl)cc2Cl)[nH]1	-0.5%
Cc1cc2nc3c(=O)[nH]c(=O)nc-3n(C)c2cc1C=O	3.67%
CCc1cn([C@H]2C[C@H](O)[C@@H](CO)O2)c(=O)[nH]c1=O	0.97%
N=C(N)NC(=N)N1CCOCC1	-1.64%
CN1CCN(C(=O)C2C(C(=O)O)[C@H]3CC[C@@H]2O3)CC1 (stereo partly drawn)	2.9%
CCS(=O)(=O)N(C)[C@H]1c2cc(C#N)ccc2OC(C)(C)[C@@H]1O (racemic)	1.41%
COC1CCN(C(=O)c2cc(Cc3n[nH]c(=O)c4ccccc34)ccc2F)CC1	12.3%
CC(C)(C)C(=O)OCOC(=O)[C@@H]1N2C(=O)C[C@H]2S(=O)(=O)C1(C)C	3.11%
COC1=C2C[C@@H](C)C[C@H](OC)[C@H](O)[C@@H](C)/C=C(\C)[C@H](OC(N)=O)[C@@H](OC)/C=C\C=C(/C)C(=O)NC(=CC1=O)C2=O	13%
COc1ccccc1OC(=O)C(C)c1ccc(CC(C)C)cc1 (stereo not drawn)	0.78%
C/C(=C\C(N)C(=O)O)CP(=O)(O)O (stereo not drawn)	3.51%
O=C(Nc1ccc(S(=O)(=O)Nc2nccs2)cc1)C(c1ccccc1)c1ccccc1	-0.56%

Block 2
Organism: Vesicular stomatitis virus
Observed: pseudovirus infection
Method: FDA-approved drug library screen
Concentration: concentration not given
Notes: SARS-CoV-2 spike pseudotype
Baseline: vehicle
SMILES	GFP-positive cells
C[C@]12C=CC(=O)C=C1CC[C@@H]1[C@@H]2[C@@H](O)C[C@@]2(C)[C@H]1CC[C@]2(O)C(=O)COP(=O)([O-])[O-].[Na+].[Na+]	77.8%
[I-].[K+]	98.3%
COc1ccccc1OCCNCC(O)COc1cccc2[nH]c3ccccc3c12.O=P(O)(O)O (stereo not drawn)	34.1%
CCCCC(O)c1ccccc1 (stereo not drawn)	108%

Block 3
Target: Replicase polyprotein 1ab, main protease (rep, Severe acute respiratory syndrome coronavirus 2, UniProt P0DTD1)
Observed: enzyme activity
Action: inhibitor
Concentration: 20 µM
Notes: primary screen
SMILES	inhibition [%]
CN(C)[C@@H]1C(=O)C(C(N)=O)C(=O)[C@@]2(O)C(=O)C3C(=O)c4c(O)cccc4[C@@](C)(O)[C@H]3[C@H](O)[C@@H]12 (stereo partly drawn)	59.6
Oc1ccc2ccccc2c1SSc1c(O)ccc2ccccc12	91.3
O=c1c2ccccc2sn1-c1ccccc1	100
C[C@H](NC(=O)/C(C#N)=C/c1cccc(Br)n1)c1ccccc1	97.7

Block 4
Target: RING finger protein unkempt homolog, zinc fingers 1-6, GST-SBP tag (UNK, Homo sapiens, UniProt Q9C0B0, residues 30-357)
Chain of UniProt Q9C0B0 (30-357, looked up): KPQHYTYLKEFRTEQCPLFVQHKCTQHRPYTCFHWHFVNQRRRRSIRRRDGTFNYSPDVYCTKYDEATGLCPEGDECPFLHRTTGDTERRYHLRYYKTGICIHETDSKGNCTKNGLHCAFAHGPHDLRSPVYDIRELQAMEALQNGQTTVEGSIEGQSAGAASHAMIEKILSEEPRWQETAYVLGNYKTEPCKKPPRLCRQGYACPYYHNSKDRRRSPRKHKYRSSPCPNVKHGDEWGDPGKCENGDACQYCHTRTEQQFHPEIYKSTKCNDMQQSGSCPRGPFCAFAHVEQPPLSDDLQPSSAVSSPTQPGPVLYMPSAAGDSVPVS
Method: RNA Bind-n-Seq
Molecule type: RNA
Matrix: in vitro
Concentration: not given
Notes: RNA with constant flanks, human and mouse sites, ends assumed
Baseline: input RNA pool
Direction: higher = stronger binding
Shared flanks, not repeated: GGGAGUUCUACAGUCCGACGAUC … CAACAGAGGAUUGAGCAUCA
Oligonucleotide	bound/input enrichment
GAUAACUAUUUCAUAUGGAGUUUCAUCGGGCCUGUUACUUUCAUUAUUCUGCUAAAUAUUAUUUUCCUGGUGAUCACGCUGUGCAAAAUGGUGAAACAUUCAAACACUCUGAAACCAGAU	0.177 ratio
CAAGAUUUUCAGAUGUUAAGUAGAAUAUGGACUCAUCCUUGGUGUUUGCAGCUAGACUACAUUAGCAAAGAAAAUAAGGGUUAUUUUGAUGAAGACAGUAUGGAUGAAUUUAUAGCCUCA	0.608 ratio
GAUUAUAUUGAUUUGGUACACAGUAAAUGGGAGUUUAAAAAAUCCAAAGACUCUAAUGACUUGUAAAGACUCUAAUGAUUUGUAUCAUGUAAUGAACUAAACCACCUGUAAUUUUGUACC	0.187 ratio
GAGUGUCGGAACUCACCUGUGGCCAAAACACCCCCAAAGGACCUGCCAGCCAUUCCUGGGGUCACUAGCCCUACCAGCGAUGAGCCUCCCAUGCAAGCCAGCCAGAGCCAACUGCCCAGC	0.158 ratio
AACUACGUGAAGAUUAAGCUUUGCUUACUGAUACAUGGCAUGUAUUCUUUUCAGUCUUUUGUGUUUGAUUUUGUUUGAUUUCCCUCUGCAGCACAGCGUCUCUGUAAAGGUUUUUAUGCU	0.4 ratio
CAGUGGUUGAAAACAAAGUUCUGUUUCAGAAAGAAUGAGGAGGGUUGUGAGCUGUGUGUGAAAGAUAAGGACUGAAGAUGUGGGGACAAGCUUGUUUGAAGUGAUGCUUGGCCAGUGAAC	0.543 ratio
UGCGUUGGCACCAACAUGGUGGGGGAACGGGAGAGUGAAGUCGCAGAGCUAACCGUUUUAGAGAGACCAUCGUUUGUGAAGAGACCCAGUAAUUUGGCAGUGACUGUGGAUGACAGUGCA	0.729 ratio
GAAAAUGAGCAAGAGCGGCAAUCGGACACUGAGGACGGCUCCAGCAAGAGAGAGACGCAGACGGAUUCUGUUUCCAGGUAUGACAGCAGUUCCACAUCAUCAAGUGAUCGGUAUGAUUCC	0.303 ratio

Block 5
Target: Histone acetyltransferase KAT6A, winged helix 2, GST fusion (KAT6A, Homo sapiens, UniProt Q92794, residues 85-181)
Method: protein binding microarray
Molecule type: double-stranded DNA, one strand shown
Matrix: in vitro
Concentration: not given
Notes: 8-mer, flanks averaged, mean of 2 arrays, mostly near background
Baseline: not given
Direction: higher = stronger binding
Construct (chain): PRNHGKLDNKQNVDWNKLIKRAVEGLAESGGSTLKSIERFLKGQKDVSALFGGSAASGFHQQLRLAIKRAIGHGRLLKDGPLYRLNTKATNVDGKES
Oligonucleotide	E-score
CTATGCCC	0.0947
CAGGAAAC	-0.00352
CTCCCTAC	-0.036
CCCTCACG	0.131
CACGAACA	0.227
GGAGGGCA	0.0892
CTCAAGAG	-0.11
ACATCCAC	0.0419

Block 6
Target: Ras GTPase-activating protein-binding protein 1, full length (G3BP1, Homo sapiens, UniProt Q13283)
Chain of UniProt Q13283 (whole entry, looked up): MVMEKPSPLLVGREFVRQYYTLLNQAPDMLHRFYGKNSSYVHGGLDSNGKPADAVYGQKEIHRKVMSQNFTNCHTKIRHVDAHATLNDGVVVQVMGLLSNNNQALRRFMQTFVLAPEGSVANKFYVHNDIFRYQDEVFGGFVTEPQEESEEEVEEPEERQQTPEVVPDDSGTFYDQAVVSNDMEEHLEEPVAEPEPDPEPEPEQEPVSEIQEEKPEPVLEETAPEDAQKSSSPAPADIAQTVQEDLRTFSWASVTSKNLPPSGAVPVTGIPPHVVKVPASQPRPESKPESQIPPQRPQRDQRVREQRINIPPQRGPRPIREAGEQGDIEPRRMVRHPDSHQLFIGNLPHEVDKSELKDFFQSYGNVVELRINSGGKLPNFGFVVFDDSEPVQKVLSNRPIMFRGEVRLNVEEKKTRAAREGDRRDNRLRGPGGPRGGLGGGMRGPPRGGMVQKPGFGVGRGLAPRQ
Method: RNA Bind-n-Seq
Molecule type: RNA
Matrix: in vitro
Concentration: 200 nM
Notes: whole 134-nt RNA, ends assumed
Together with: 150 mM LiCl
Baseline: input library
Direction: higher = stronger binding
Each molecule: 7-deaza-guanosine replaces G
Shared flanks, not repeated: GGGAGUUCUACAGUCCGACGAUC … UGGAAUUCUCGGGUGUCAAGG
Oligonucleotide	log2 enrichment
CCUGUGCUACACAUCGUAUGUACCGAAUCGGGGUUUUUUUGGGGUUUUUGGGGUUUGGGGAAAGUAUUAUGUUACGCCGUUCGGAUCUGC	0.236
AGUCCUGUGCUACACAUCGUAUGUACCGAAUCAAAUUUUUUUAAAUUUAAACCCAAAAAAGUAUUAUGUUACGCCGUUCGGAUCUGCACU	-0.452
UGAGAAACUUGCUCAAAUAUUGGCAGCUAGACAGUUAGAAAUUAAACAGAUUCCAUCUGAUGGCCACUGUAUGUAUAAAGCCAUUGAAGA	-1.57
UUGCAUUUCGAACGCGUUCUAAGAUGCCCCUGAAAGAUGUUCCCCUGGGCCAAUUAGAGGCAGAGCUCCAAGCUCCAGACAUCACUCCAG	0.596
CAAGUCCUGUGCUACACAUCGUAUGUACCGAAUCGGGUGGGAAAAAGGGAAAGGGAAAGUAUUAUGUUACGCCGUUCGGAUCUGCACUUC	-0.831
CACAGACAACACGCACCCACACAGACACACAGGGAAGGGGUUGGGAUGGGGACAGGGUGCACAGCAGGGCGGGGUAGGACCCCAGCCCCU	-0.212
AAGUCCUGUGCUACACAUCGUAUGUACCGAAUCGGCCCCCGGCCCCCGGCCCCCGGGAAAGUAUUAUGUUACGCCGUUCGGAUCUGCACU	-0.0488
CAAGUCCUGUGCUACACAUCGUAUGUACCGAAUCGGUUUUUGGUUUGGAAAAAGGAAAGUAUUAUGUUACGCCGUUCGGAUCUGCACUUC	-1.44

Excerpt of the above (block 5):
Oligonucleotide	E-score
CAGGAAAC	-0.00352
CTCCCTAC	-0.036
CCCTCACG	0.131
CACGAACA	0.227
GGAGGGCA	0.0892
CTCAAGAG	-0.11
ACATCCAC	0.0419
